Published values collected from several papers.
Lines come from different studies, so protocols differ. ± marks the error that the study gave. Converted amounts (≈) assume the structure as drawn.

The chains behind the UniProt entries cited, without tags or fusion partners. Residues count along the entry.
UniProt Q13002, 32-908 limits assumed: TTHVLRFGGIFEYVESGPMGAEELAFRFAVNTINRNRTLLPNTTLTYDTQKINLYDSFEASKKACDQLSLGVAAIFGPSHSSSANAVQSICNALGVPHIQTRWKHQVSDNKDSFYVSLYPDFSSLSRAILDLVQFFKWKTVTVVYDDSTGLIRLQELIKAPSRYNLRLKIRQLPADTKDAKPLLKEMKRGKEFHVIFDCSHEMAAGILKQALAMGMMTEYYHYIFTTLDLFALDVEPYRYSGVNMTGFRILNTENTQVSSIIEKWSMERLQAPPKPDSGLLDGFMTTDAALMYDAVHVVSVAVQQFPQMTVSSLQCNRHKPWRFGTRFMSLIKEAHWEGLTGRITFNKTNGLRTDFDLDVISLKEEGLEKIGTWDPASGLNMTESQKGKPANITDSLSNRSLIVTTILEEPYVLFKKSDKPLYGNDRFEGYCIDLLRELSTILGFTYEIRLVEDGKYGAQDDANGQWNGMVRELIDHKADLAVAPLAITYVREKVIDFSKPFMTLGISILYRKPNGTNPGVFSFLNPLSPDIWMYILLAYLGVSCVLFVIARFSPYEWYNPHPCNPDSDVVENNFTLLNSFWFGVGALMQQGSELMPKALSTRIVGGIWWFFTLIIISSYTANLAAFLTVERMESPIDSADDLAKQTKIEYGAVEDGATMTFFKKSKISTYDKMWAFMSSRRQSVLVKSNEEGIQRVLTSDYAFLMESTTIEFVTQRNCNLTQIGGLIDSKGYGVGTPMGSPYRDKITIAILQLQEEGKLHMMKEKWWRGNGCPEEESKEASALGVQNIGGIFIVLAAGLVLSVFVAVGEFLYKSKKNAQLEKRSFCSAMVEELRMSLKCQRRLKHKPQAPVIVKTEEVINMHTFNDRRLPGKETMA
UniProt Q16099, 21-956 limits assumed: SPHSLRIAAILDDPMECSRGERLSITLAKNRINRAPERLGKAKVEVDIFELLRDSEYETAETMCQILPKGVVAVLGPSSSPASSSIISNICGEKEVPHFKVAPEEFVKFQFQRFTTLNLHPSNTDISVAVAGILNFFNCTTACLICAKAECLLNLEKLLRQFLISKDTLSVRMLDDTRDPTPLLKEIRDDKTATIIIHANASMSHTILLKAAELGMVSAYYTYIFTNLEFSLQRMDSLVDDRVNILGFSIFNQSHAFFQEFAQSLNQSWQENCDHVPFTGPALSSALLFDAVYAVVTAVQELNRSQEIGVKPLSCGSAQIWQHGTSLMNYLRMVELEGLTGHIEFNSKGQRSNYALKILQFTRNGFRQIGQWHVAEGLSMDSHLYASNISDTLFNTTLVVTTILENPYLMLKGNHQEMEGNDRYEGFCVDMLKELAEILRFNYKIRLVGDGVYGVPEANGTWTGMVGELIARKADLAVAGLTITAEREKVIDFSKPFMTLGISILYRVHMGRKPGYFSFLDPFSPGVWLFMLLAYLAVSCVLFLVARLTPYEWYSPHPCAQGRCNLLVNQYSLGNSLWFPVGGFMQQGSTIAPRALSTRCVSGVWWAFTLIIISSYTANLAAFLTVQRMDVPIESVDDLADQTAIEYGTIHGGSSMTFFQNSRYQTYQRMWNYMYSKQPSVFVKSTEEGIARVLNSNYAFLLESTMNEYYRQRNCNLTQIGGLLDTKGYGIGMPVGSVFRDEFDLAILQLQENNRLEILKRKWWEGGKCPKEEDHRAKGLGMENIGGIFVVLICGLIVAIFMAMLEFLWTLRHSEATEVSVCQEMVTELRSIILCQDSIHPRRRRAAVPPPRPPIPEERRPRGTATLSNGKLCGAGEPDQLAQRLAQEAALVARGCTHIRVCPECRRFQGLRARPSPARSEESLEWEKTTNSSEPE
UniProt P08684, whole entry: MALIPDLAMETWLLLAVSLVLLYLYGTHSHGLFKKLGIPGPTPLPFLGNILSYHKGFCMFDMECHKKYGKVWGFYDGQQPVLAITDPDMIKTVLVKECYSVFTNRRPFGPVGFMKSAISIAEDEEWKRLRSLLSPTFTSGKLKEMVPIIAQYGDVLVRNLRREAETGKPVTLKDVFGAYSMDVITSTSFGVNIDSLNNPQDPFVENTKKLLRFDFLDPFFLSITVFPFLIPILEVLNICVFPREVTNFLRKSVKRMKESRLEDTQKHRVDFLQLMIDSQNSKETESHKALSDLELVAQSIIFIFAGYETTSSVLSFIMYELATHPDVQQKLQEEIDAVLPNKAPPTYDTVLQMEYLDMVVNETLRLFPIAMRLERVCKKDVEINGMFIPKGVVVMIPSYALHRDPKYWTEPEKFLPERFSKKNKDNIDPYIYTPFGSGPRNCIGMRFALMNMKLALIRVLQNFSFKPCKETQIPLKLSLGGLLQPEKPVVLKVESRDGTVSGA
UniProt P11712, whole entry: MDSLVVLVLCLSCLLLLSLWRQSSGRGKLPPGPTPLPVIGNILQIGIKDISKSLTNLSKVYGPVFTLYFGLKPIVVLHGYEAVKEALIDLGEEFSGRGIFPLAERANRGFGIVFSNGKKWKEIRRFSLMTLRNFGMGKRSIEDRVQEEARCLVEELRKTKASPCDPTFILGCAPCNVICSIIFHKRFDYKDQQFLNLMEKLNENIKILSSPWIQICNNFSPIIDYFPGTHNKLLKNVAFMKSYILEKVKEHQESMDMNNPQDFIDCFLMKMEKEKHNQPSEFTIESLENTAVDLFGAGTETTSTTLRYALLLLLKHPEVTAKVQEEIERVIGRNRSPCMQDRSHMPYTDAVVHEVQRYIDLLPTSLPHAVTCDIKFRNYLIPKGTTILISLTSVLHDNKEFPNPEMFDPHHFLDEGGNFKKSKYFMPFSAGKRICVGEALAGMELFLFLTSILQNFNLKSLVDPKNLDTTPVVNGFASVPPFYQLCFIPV
UniProt P41595, whole entry: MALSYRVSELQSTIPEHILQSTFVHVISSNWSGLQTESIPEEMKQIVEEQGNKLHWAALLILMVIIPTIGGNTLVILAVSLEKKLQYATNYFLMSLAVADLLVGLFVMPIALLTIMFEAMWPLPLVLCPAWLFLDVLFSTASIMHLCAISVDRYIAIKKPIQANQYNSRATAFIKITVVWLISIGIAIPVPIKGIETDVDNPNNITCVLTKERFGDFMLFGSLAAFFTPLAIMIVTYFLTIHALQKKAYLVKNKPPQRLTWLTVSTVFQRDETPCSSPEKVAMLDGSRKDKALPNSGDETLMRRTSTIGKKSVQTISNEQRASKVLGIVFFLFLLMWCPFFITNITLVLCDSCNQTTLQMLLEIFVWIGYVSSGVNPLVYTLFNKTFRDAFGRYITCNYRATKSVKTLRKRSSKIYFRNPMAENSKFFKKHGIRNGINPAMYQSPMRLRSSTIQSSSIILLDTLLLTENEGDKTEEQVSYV

With `O=C(Nc1ccccc1)c1cc([N+](=O)[O-])ccc1Cl` the revertants was 55 ± 14 revertants/plate (Salmonella typhimurium; Ames plate incorporation; TA98; 50 µg/plate, without metabolic activation).
Under “total amount delivered”, `C[C@H](Cc1ccc(O)c(O)c1)[C@@H](C)Cc1ccc(O)c(O)c1` is recorded as 30.5 ± 3.17 µg (human skin; 4% w/v solution, 24 h).
`CSc1nc(Cl)cc(Sc2nnc(-c3cc(C(F)(F)F)cc(C(F)(F)F)c3)[nH]2)n1` gave an MIC of 10 µg/mL (≈ 21.2 µM) (Salmonella Typhimurium; SL1344; with: polymyxin B nonapeptide 25 µg/mL).
The Tmax of `CC#C/C(=N\OC[C@H]1COCCN1)c1ccc2ncnc(Nc3ccc(OCc4cccc(F)c4)c(Cl)c3)c2c1` is reported as 1 h (nude mouse, plasma; oral, 100 mg/kg).
Under “log2 fold change”, `CCN1CCN(Cc2ccc(NC(=O)c3ccc(C)c(/C=C/c4cnc5[nH]ccc5c4OC)c3)cc2C(F)(F)F)CC1` is recorded as 0.105 (SPTBN1-FLT3 fusion; kinase-CDC37 interaction, cell-based kinome screen; 5 µM; reference: vehicle).
For `CCN(CC)C(=O)Oc1ccc(C(=O)Nc2cccc3cc[nH]c23)cc1`, the current response was 101 ± 1.9% (GRIK2/GRIK4 (Homo sapiens, UniProt Q13002+Q16099); modulator, two-electrode voltage clamp; Xenopus oocytes; 20 µM, with: 100 µM AMPA; reference: agonist alone).
`CCOc1ccc2cc(-c3nn(CC4CCN(C)CC4)c4ncnc(N)c34)ccc2n1` gave an IC50 of > 100 µM (Cytochrome P450 3A4 (CYP3A4, Homo sapiens, UniProt P08684); inhibitor).
For `CC(=O)N1C[C@@H](COP(=O)(N(C)C)N2C[C@@H](COP(=O)(N(C)C)N3C[C@@H](COP(=O)(N(C)C)N4C[C@@H](COP(=O)(N(C)C)N5C[C@@H](COP(=O)(N(C)C)N6C[C@@H](COP(=O)(N(C)C)N7C[C@@H](COP(=O)(N(C)C)N8C[C@@H](COP(=O)(N(C)C)N9C[C@@H](COP(=O)(N(C)C)N%10C[C@@H](COP(=O)(N(C)C)N%11C[C@@H](COP(=O)(N(C)C)N%12C[C@@H](COP(=O)(N(C)C)N%13C[C@@H](COP(=O)(N(C)C)N%14C[C@@H](COP(=O)(N(C)C)N%15C[C@@H](COP(=O)(N(C)C)N%16C[C@@H](COP(=O)(N(C)C)N%17C[C@@H](COP(=O)(N(C)C)N%18C[C@@H](COP(=O)(N(C)C)N%19C[C@@H](COP(=O)(N(C)C)N%20C[C@@H](COP(=O)(N(C)C)N%21C[C@@H](COP(=O)(N(C)C)N%22C[C@@H](COP(=O)(N(C)C)N%23C[C@@H](COP(=O)(N(C)C)N%24CCN(C(=O)CCCN%25C(=O)CC(SC[C@H](NC(=O)[C@H](CCCNC(=N)N)NC(=O)[C@H](CCCNC(=N)N)NC(=O)[C@H](CCCNC(=N)N)NC(=O)[C@H](CCCNC(=N)N)NC(=O)[C@H](Cc%26ccccc%26)NC(=O)[C@H](Cc%26ccccc%26)NC(=O)[C@H](CCCNC(=N)N)NC(=O)[C@H](CCCNC(=N)N)NC(=O)[C@H](CCCNC(=N)N)NC(=O)[C@H](CCCNC(=N)N)NC(=O)[C@@H](N)CCCNC(=N)N)C(N)=O)C%25=O)CC%24)O[C@@H](n%24cnc%25c(=O)[nH]c(N)nc%25%24)C%23)O[C@@H](n%23cc(C)c(=O)[nH]c%23=O)C%22)O[C@@H](n%22ccc(N)nc%22=O)C%21)O[C@@H](n%21cnc%22c(N)ncnc%22%21)C%20)O[C@@H](n%20cc(C)c(=O)[nH]c%20=O)C%19)O[C@@H](n%19ccc(N)nc%19=O)C%18)O[C@@H](n%18cc(C)c(=O)[nH]c%18=O)C%17)O[C@@H](n%17cc(C)c(=O)[nH]c%17=O)C%16)O[C@@H](n%16cnc%17c(=O)[nH]c(N)nc%17%16)C%15)O[C@@H](n%15ccc(N)nc%15=O)C%14)O[C@@H](n%14cnc%15c(=O)[nH]c(N)nc%15%14)C%13)O[C@@H](n%13ccc(N)nc%13=O)C%12)O[C@@H](n%12ccc(N)nc%12=O)C%11)O[C@@H](n%11cnc%12c(N)ncnc%12%11)C%10)O[C@@H](n%10cc(C)c(=O)[nH]c%10=O)C9)O[C@@H](n9cc(C)c(=O)[nH]c9=O)C8)O[C@@H](n8cc(C)c(=O)[nH]c8=O)C7)O[C@@H](n7cc(C)c(=O)[nH]c7=O)C6)O[C@@H](n6cc(C)c(=O)[nH]c6=O)C5)O[C@@H](n5cnc6c(=O)[nH]c(N)nc65)C4)O[C@@H](n4cc(C)c(=O)[nH]c4=O)C3)O[C@@H](n3cnc4c(=O)[nH]c(N)nc43)C2)O[C@@H](n2cnc3c(=O)[nH]c(N)nc32)C1` (stereo partly drawn), the viability was 96% (BCBL1 cells; 16 µM; reference: mock-treated).
With `CO[C@]12CC[C@@]3(C[C@@H]1C(C)(C)O)[C@H]1Cc4ccc(O)c5c4[C@@]3(CCN1CC1CC1)[C@H]2O5` the inhibition was 2.3% (Cytochrome P450 2C9 (CYP2C9, Homo sapiens, UniProt P11712); human liver microsomes; 10 µM).
`C=C[C@@H]1[C@H]2CCC[C@]1(c1cccc(O)c1)CCN2CCc1ccccc1` has a kinetic solubility of 34 µg/mL (≈ 97.8 µM) (aqueous buffer).
`CSCC[C@@H](C=O)NC(=O)[C@H](CC(C)C)NC(=O)[C@H](CC(C)C)NC(C)=O` has a CC50 of > 100 µM (Vero; neutral red uptake; 48 h).
`CCCN1CCN(c2ccc3c(c2)C2CC3CCN2C(=O)OCc2ccccc2)CC1` (stereo not drawn) gave a Ki of 0.868 µM (HTR2B (Homo sapiens, UniProt P41595); binding, radioligand binding).

A few entries again:
`CCOc1ccc2cc(-c3nn(CC4CCN(C)CC4)c4ncnc(N)c34)ccc2n1` gave an IC50 of > 100 µM (Cytochrome P450 3A4 (CYP3A4, Homo sapiens, UniProt P08684); inhibitor).
